Measurements of several laboratories.
Numbered parts are unrelated; each lists some results of a single study. Substitutions count along the parent as printed.

Set 1 — method: protein-binding microarray; molecule type: double-stranded DNA, one strand shown; sample: in vitro; concentration: 250 nM; setting: 60-bp whole probe; with: salmon DNA 0.4 mg/ml; baseline: random background probes; direction: higher = stronger binding; constant ends, left off below: GCCTAGCAC … GTCTTGATTCGCTTGACGCTGCTG
Target: Interferon regulatory factor 7, full length, phosphomimetic (IRF7, Homo sapiens, UniProt Q92985, residues 1-503, S101K/S471D/S472D/S475D/S476D/S477D/S483D/S484D/S487D)
UniProt Q92985, sequence (whole entry, unmodified, looked up): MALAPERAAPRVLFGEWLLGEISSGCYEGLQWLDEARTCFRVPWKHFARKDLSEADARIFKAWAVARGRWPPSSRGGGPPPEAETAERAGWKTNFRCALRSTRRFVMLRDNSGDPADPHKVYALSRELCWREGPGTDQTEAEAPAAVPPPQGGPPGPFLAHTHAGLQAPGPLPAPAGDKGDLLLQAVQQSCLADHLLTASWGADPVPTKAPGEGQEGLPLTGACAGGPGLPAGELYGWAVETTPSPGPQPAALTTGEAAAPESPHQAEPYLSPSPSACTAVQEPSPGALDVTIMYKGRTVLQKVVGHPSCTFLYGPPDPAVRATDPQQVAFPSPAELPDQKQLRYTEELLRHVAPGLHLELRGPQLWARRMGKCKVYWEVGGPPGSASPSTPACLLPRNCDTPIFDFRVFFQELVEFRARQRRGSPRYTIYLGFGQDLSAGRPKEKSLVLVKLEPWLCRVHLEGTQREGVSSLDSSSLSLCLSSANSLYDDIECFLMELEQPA
Sequence	log fluorescence
GACGGTATCGACACTGCGGACGTGCTA	-0.404 z-score
GCCGGTTTCGGGTATCGGGACGTGCTA	8.19 z-score
TTAGGTCTACTTTTCCTTTAGTGCTAG	0.928 z-score
TTAGGCTTCGGTTCCGGTTAGTGCTAG	2.2 z-score
TTAGGTATCCTTTTCTTTTAGTGCTAG	1.48 z-score
GACGAACTTAGTCTCGAGACGTGCTAG	1.01 z-score
ATGGAAATGCACCCCACGCTGTGCTAG	-0.686 z-score
TTAGATCTCACACTGGATTAGTGCTAG	-0.33 z-score
TTAGGACTTGACACTGGGTTAGTGCTA	-0.442 z-score
TTAGGTTTGGGGTATCGGTTAGTGCTA	0.319 z-score
TCATTTTTCTGATCCATACTGTGCTAG	1.45 z-score
GACGGTTTCGGTCCCGGGACGTGCTAG	6 z-score

Set 2 — method: RNA Bind-n-Seq; molecule type: RNA; sample: in vitro; concentration: 365 nM; baseline: no-protein control; direction: higher = stronger binding
Target: RNA binding protein fox-1 homolog 2, RRM domain, GST-SBP tag (RBFOX2, Homo sapiens, UniProt O43251-10, residues 100-194)
Setting: natural RNA segment, single round, ends assumed
Constant ends, left off below: GGGAGUUCUACAGUCCGACGAUC … UGGAAUUCUCGGGUGCCAA
Construct (chain): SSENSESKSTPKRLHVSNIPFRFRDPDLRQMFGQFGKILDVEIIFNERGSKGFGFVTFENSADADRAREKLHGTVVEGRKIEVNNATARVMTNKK
Sequence	RBNS enrichment (R)
CCCUUUACCUCACAGUCUCCAUUGGACCUCAGCCAGGACCAGCCUCUGUCUGGUCCGAGAUGACCCUCUGGUCCAGGCCUCGCUGACACUUUUGUUCUCAGCUUCUGCCA	0.289
GGGCCACACUGCUGCUGUGCCAAGAAGGUGUACAGCCUCCCCAGGAUGGGGCCUCAUACAACCCUUCAUCUGCACUCAACAUUUAAUCGUGUCCUUGCUGUCUUUUUAUU	0.367
AGACCAAGACAGAGCAAGCCAGUGAAGAACAUGAGCAGGAAACAGCUGCUCCUGAGCAUGAAGGAACCCACCCUAAGCCAGUCCUGACAGCUGACAUGCCUCACUCAGAG	2.01
CUUGCUUUGCAUUUGAUAGUGUCAAAUAAUUGCUUGUACCCUAGGUAAUGACCAGUGGAUUUUUGUUUGGCUUUAUUAAUCUCAUCACAGUGUAUUCUGAUGUCUUAAGU	4.3
GCACAGGGAGAAGGGAUAACCCUACACCCAGACCCCAGGCUGGACAUGCUGACUGUCCUCUCCCCUCCAGCCUUUGGCCUUGGCUUUUCUAGCCUAUUUACCUGCAGGCU	0.258
AUCCUGGCUUUGCCCAACCUCAGCAACCUGUAAGACUGAUAAUGAAAUAAAUCAUGUUAAUCCUAGCUGUGUGCAGUCUCUCUUACCCUUCUGUGCCCAGCUCAGUCUUC	0.32
UUUAUGGAGCCUCCAGAACAGAUGCCAUCUUCCUGAAUGUUGACAUGCCAGUGGGUGUGACUCCUUCAUUUUUCCUUCUCCCUUCCCUUUGGACAGUGUUACAGUGAACA	0.433
UCAUCAUGCAGCCUUCUGGGUUGGUUGCUAUAUAUAUCUUUUUUCCUUGAUGUCCCGUUCUCUUCCACAGCCCUGAGGUCUUACGAAUUUUUCUACUUUCUUUUUGCUGU	0.797
CAUGGGGCCUGUGCCCACCCCUCUUGAGUGUCUUGGGGACAGCUCUUUCCACCCCUGGAAGAUGGAAAUAAACCUGCGUGUGGGUGGAGUGUUAGGACCAACGGUUUCCU	0.346
UUAUACACUUGGUCUUUCCAUGUAUAUACCGGCCUCUGUUUUUUUUUUUUCCAAUCUCUGGCUCUUCUGUCAUCUUCCAAGCAGCGUCUGAGAGCUCUGCACGGGCACAG	0.659

Set 3 — target: CCND1, cyclin fold, Cln2 fusion (human); method: yeast growth competition, sequencing; sample: yeast; setting: weak parent motif; baseline: not given; direction: higher = stronger binding
Starting sequence: CDC25A docking peptide (human); PPHRRRLLFACSP
Substitution	normalised enrichment score
S12D	-0.372
L8S	-0.0398
P13N	0.411
P1L	-0.21
P13L	0.069
R6E	-0.0384
S12P	0.0845
P2T	0.584
P1M	0.0374
F9E	0.108
H3V	0.139
L7I	0.43
P2R	0.472
C11S	0.0647
L8E	-0.151
R6V	0.168

Single results of other studies
Substance	target	test	system	setting	scale	endpoint	value
PhoQ, residues 284 288 289 292 302 303 SMYGEC	PhoP, residues 12 14 15 18 19 VQALL (Escherichia coli, UniProt P23836)	Sort-seq, refers to: YFP reporter	E. coli	PhoQ-PhoP variant library, with: 10 µM Mg2+	baseline: high Mg2+ state, higher = stronger signaling	fold induction	13.6

Some of these lines once more (set 2):
Sequence	RBNS enrichment (R)
AGACCAAGACAGAGCAAGCCAGUGAAGAACAUGAGCAGGAAACAGCUGCUCCUGAGCAUGAAGGAACCCACCCUAAGCCAGUCCUGACAGCUGACAUGCCUCACUCAGAG	2.01
CUUGCUUUGCAUUUGAUAGUGUCAAAUAAUUGCUUGUACCCUAGGUAAUGACCAGUGGAUUUUUGUUUGGCUUUAUUAAUCUCAUCACAGUGUAUUCUGAUGUCUUAAGU	4.3
GCACAGGGAGAAGGGAUAACCCUACACCCAGACCCCAGGCUGGACAUGCUGACUGUCCUCUCCCCUCCAGCCUUUGGCCUUGGCUUUUCUAGCCUAUUUACCUGCAGGCU	0.258
AUCCUGGCUUUGCCCAACCUCAGCAACCUGUAAGACUGAUAAUGAAAUAAAUCAUGUUAAUCCUAGCUGUGUGCAGUCUCUCUUACCCUUCUGUGCCCAGCUCAGUCUUC	0.32
